Published values gathered from unrelated publications.
Each line is one published result; not all experiments were run side by side. “And” joins repeats or separate records; there may be more than shown. ± gives the spread as reported.
CASP10: Caspase-10 (CASP10, Homo sapiens, UniProt Q92851)
TARDBP aggregated: TAR DNA-binding protein 43, aggregated (TARDBP, Homo sapiens, UniProt Q13148)
CASP8: Caspase-8 (CASP8, Homo sapiens, UniProt Q14790)
MAPT: Microtubule-associated protein tau (MAPT, Homo sapiens, UniProt P10636)
ADRA1A: Alpha-1A adrenergic receptor (ADRA1A, Homo sapiens, UniProt P35348)
DCPS: m7GpppX diphosphatase (DCPS, Homo sapiens, UniProt Q96C86)

CCN(CC)C(=O)c1ccc(O)c(OC)c1 — bound ligand fraction (Heat shock protein HSP 90-alpha, N-terminal domain (HSP90AA1, Homo sapiens, UniProt P07900); binding, ligand-observed NMR titration; 9.86 µM, ligand to protein ratio 272): 0.28
O=C(CC1CC2CCC1C2)NCCNC(=O)Cn1c(=O)[nH]c(=O)c2ccccc21 (stereo not shown) — inhibition (Poly [ADP-ribose] polymerase 1 (PARP1, Homo sapiens, UniProt P09874); enzyme activity, inhibitor; 0.104 µM): 86%
CC(=O)N[C@@H](Cc1ccc(N)cc1)C(=O)N[C@@H](CCCC(=O)O)C(=O)N[C@@H](CC1CCCCC1)C(=O)N[C@@H](CC(=O)O)C(=O)COC(=O)c1c(C)cccc1C — kinact/KI (CASP10; enzyme activity, inhibitor): 97600 M⁻¹ s⁻¹
O=C1c2sc(-c3ccc(N4CCC(CO)CC4)nc3F)nc2CCN1c1cccnc1 — specific binding (TARDBP aggregated; radioligand binding; control brain sarkosyl-insoluble extract; 6.91 nM): -0.006 nM
CC(=O)N[C@@H](Cc1ccccc1Cl)C(=O)N[C@@H](CCC(=O)O)C(=O)N[C@@H](C)C(=O)N[C@@H](CC(=O)O)C(=O)COC(=O)c1c(C)cccc1C — kinact/KI (CASP8; enzyme activity, inhibitor): 2.34e+06 M⁻¹ s⁻¹
CCN(CC)C(CO)c1cccc2c(C)c(C)oc12 (stereo not shown) — fold change (Lysophosphatidic acid receptor 1 (LPAR1, Homo sapiens, UniProt Q92633, W271A); G-protein dissociation, agonist, NanoBiT; HEK-293T; 10 µM, W271A mutant; reference: baseline luminescence): 0.953 and 0.886 and 0.775 and 0.92 and 0.945 and 0.836
CC(=O)N[C@@H](CC(=O)O)C(=O)N[C@@H](CCCC(=O)O)C(=O)N1[C@H](C(=O)N[C@@H](CC(=O)O)C(=O)COC(=O)c2c(C)cccc2C)C[C@@H]2CCCC[C@@H]21 — kinact/KI (CASP8; enzyme activity, inhibitor): 832000 M⁻¹ s⁻¹
CCCCCCCCCCCCC/C=C/C=O — isoTOP-ABPP competition ratio (Enoyl-CoA delta isomerase 2 (ECI2, Homo sapiens, UniProt O75521); competitive isoTOP-ABPP; proteome, soluble, MDA-MB-231; 100 µM, 60 min, together with: iodoacetamide probe; reference: DMSO over compound-treated, higher = stronger cysteine blockade): 1.1
CC(=O)N[C@@H](CCC(N)=O)C(=O)N[C@@H](CC(C)C)C(=O)N[C@@H](CCCC(=O)O)C(=O)N1CCC[C@H]1C(=O)N[C@@H](CC(=O)O)C(=O)COC(=O)c1c(C)cccc1C — kinact/KI (CASP10; enzyme activity, inhibitor): 194000 M⁻¹ s⁻¹
Fc1ccc(Nc2nc(NC3CCCCC3)c3ccccc3n2)cc1F — maximal inhibition (Beta-2 adrenergic receptor (ADRB2, Homo sapiens, UniProt P07550, I153L); β-arrestin2 recruitment, antagonist, BRET; mutant I153L; reference: isoprenaline maximal response): 6.8%
CC[C@H](C)[C@H](NC(=O)[C@H](CCC(N)=O)NC(=O)[C@@H](NC(=O)[C@@H]1CCCN1[C@@H]1CN(C(=O)[C@H](CCCCN)NC(=O)[C@H](CC(N)=O)NC(=O)[C@@H](NC(=O)[C@@H](NC(=O)[C@H](CCC(N)=O)NC(=O)[C@@H](N)C(C)C)[C@@H](C)CC)[C@@H](C)CC)CC[C@H]1NS(=O)(=O)c1ccc(C)cc1)C(C)C)C(=O)N[C@H](C(=O)N[C@@H](Cc1ccc(O)cc1)C(=O)N[C@@H](CCCCN)C(N)=O)C(C)C — ThT fluorescence (MAPT; fibril formation, ThT fluorescence; 5-fold of tau, at plateau, together with: wild-type tau 10 µM, heparin; reference: untreated): 3 ± 2%
O=c1cc(NCCCO)c2ccccc2o1 — agonist activity (ADRA1A; calcium mobilization, agonist; COS-7; 500 µM; reference: 3 µM ionomycin): 1.18 ± 0.42%
CO[C@@H]1[C@H](O)[C@@H](COP(=O)(O)OP(=O)([O-])C(F)(F)P(=O)(O)OP(=O)(O)OC[C@H]2O[C@@H](n3cnc4c(=O)[nH]c(N)nc43)[C@H](O)[C@@H]2O)O[C@H]1n1c[n+](C)c2c(O)nc(N)nc21 — hydrolysis (DCPS; substrate, HPLC; concentration not given, 120 min): 15.7 ± 1.9%
CCCCCCCCCCCCCCCC(=O)NCCCC[C@H](NC(=O)[C@H](CCC(=O)O)NC(=O)[C@H](Cc1ccc(O)cc1)NC(=O)[C@H](CCC(=O)O)NC(=O)COCC(=O)NCCCOCCOCCOCCCNC(=O)[C@H](Cc1c[nH]c2ccccc12)NC(=O)[C@H](CCCCN)NC(=O)[C@H](C)NC(=O)[C@H](CCCCNC(=N)N)NC(=O)[C@H](CCC(N)=O)NC(=O)[C@H](Cc1c[nH]cn1)NC(=O)[C@H](CCSC)NC(=O)[C@H](CC(C)C)NC(=O)[C@H](CCC(N)=O)NC(=O)[C@@H](NC(=O)[C@H](CCC(=O)O)NC(=O)C(C)(C)NC(=O)[C@@H](NC(=O)C(C)(C)N)C(C)C)[C@@H](C)CC)C(=O)N[C@@H](CCC(=O)O)C(=O)N[C@@H](Cc1ccc(O)cc1)C(=O)N[C@@H](CCC(=O)O)C(N)=O — cAMP luminescence AUC (Parathyroid hormone/parathyroid hormone-related peptide receptor (PTH1R, Homo sapiens, UniProt Q03431); agonist; Saos-2 with cAMP reporter; 31.6 pM, 30 min, ligand-on phase; higher = more cAMP): 4.4 a.u.
CC[C@H](C)[C@H](NC(=O)[C@@H](NC(=O)[C@H](CCCCN)NC(=O)[C@@H](N)[C@@H](C)O)C(C)C)C(=O)N[C@@H](CC(C)C)C(=O)N[C@@H](Cc1c[nH]cn1)C(N)=O — ThT fluorescence (MAPT; fibril formation, ThT fluorescence; 5-fold of tau, at plateau, together with: wild-type tau 10 µM, heparin; reference: untreated): 80 ± 8%
CC(C)Oc1cc(Cl)ccc1CNc1cc(-c2ccccc2)nc2ncnn12 — cAMP luminescence (G-protein coupled receptor 3 (GPR3, Homo sapiens, UniProt P46089, V196W); cAMP level, cAMP GloSensor; 100 nM; higher = more cAMP): 51500 a.u. and 47500 a.u. and 32900 a.u. and 31600 a.u.
C#CCOC(=O)[C@@]1(C)C=C(C(=O)OC(C)(C)C)C(=O)CC1 — normalized kinase activity (Mitogen-activated protein kinase 8 (MAPK8, Homo sapiens, UniProt P45983); enzyme activity, D-SENSOR; 0.1829 µM, mean of replicates): 0.97
CC(=O)N[C@@H](Cc1c[nH]c2ccccc12)C(=O)N[C@@H](CCC(=O)O)C(=O)N[C@@H](C)C(=O)N[C@@H](CC(=O)O)C(=O)COC(=O)c1c(C)cccc1C — kinact/KI (CASP10; enzyme activity, inhibitor): 301000 M⁻¹ s⁻¹
N=C(N)NCCS(=O)(=O)O — normalised MST signal (Sodium- and chloride-dependent taurine transporter (SLC6A6, Homo sapiens, UniProt P31641, Y138A); binding, microscale thermophoresis; 62.5 µM, room temperature, together with: 50 nM labelled protein; higher = more binding): -0.0934
CC(=O)N[C@@H](CC(=O)O)C(=O)N[C@@H](CCC(=O)O)C(=O)N[C@H](C(=O)N[C@@H](CC(=O)O)C(=O)COC(=O)c1c(C)cccc1C)C(C)C — kinact/KI (CASP8; enzyme activity, inhibitor): 889000 M⁻¹ s⁻¹
N#CN1CC[C@H](C(=O)Nc2nc3c(s2)CN(C(=O)Cn2cc(COCCOCCOCCOCCNC(=O)CCCC[C@@H]4SC[C@@H]5NC(=O)N[C@@H]54)nn2)CC3)C1 — iBAQ abundance (Ubiquitin carboxyl-terminal hydrolase 24 (USP24, Homo sapiens, UniProt Q9UPU5); probe binding, affinity probe, neutravidin pull-down LC-MS/MS; HEK293T, cell lysate; 5 µM, 1 h, mean of three replicates, unit not given; higher = more pulled down): 915000
CC(=O)N[C@@H](CO)C(=O)N[C@H](C(=O)N[C@@H](CCC(=O)O)C(=O)N[C@H](C(=O)N[C@@H](CC(=O)O)C(=O)COC(=O)c1c(C)cccc1C)C(C)C)C(C)(C)C — kinact/KI (CASP8; enzyme activity, inhibitor): 758000 M⁻¹ s⁻¹
COc1ccc(C(=O)c2c(C(=O)NCCCN(C)C)oc3ccc(Cl)cc3c2=O)cc1OC — Emax (net BRET) (Growth hormone secretagogue receptor type 1 (GHSR, Homo sapiens, UniProt Q92847); endosomal trafficking, agonist, bystander BRET 2xFYVE-Venus; 60 min, unit not given; reference: baseline): 0.036 ± 0.008
O=C(O)c1cc(-c2coc3cc(O)ccc3c2=O)ccc1F — DHEA metabolism (3 beta-hydroxysteroid dehydrogenase/Delta 5-->4-isomerase type 1 (HSD3B1, Homo sapiens, UniProt P14060); [3H]-DHEA conversion; LNCaP; 0.1 µM, normalized to protein, unit not given; reference: vehicle): 0.13
C[n+]1cn([C@@H]2O[C@H](COP(=O)(O)OP(=O)([O-])C(F)(F)P(=O)(O)O)[C@@H](O)[C@H]2O)c2nc(N)nc(O)c21 — hydrolysis (DCPS; substrate, HPLC; concentration not given, 120 min): 14.4 ± 0.6%
CC(=O)N[C@@H](CC(=O)O)C(=O)N[C@@H](Cc1ccc2ccccc2c1)C(=O)N[C@@H](C)C(=O)N[C@@H](CC(=O)O)C(=O)COC(=O)c1c(C)cccc1C — kinact/KI (CASP8; enzyme activity, inhibitor): 108000 M⁻¹ s⁻¹
COc1ncc2nc(C)n(Cc3ncc(S(N)(=O)=O)cc3F)c2c1-c1ccccc1 — activation (ADRA1A; agonist, cell-based; 10 µM): 4.67%
O=C1c2sc(-c3ccc(N4CCC(F)C4)nc3F)nc2CCN1c1cccnc1 (stereo not shown) — specific binding (TARDBP aggregated; saturation autoradiography; human, FTLD-TDP type A brain sections; 2.87 nM): 39.6 nM
